Results collected from several papers.
Compare with care: the assays were run in different laboratories. Several values in a cell are separate wells, animals, samples, runs or records. ± gives the spread as reported.
HSP90AA1 N-terminal domain: Heat shock protein HSP 90-alpha, N-terminal domain (HSP90AA1, Homo sapiens, UniProt P07900)
KDM1A: Lysine-specific histone demethylase 1A (KDM1A, Homo sapiens, UniProt O60341)
CASP1: Caspase-1 (CASP1, Homo sapiens, UniProt P29466)
Rhomboid protease AarA: Rhomboid protease AarA (Providencia stuartii, UniProt P46116)

| Compound | target | test | test system | setting | how to read | endpoint | result |
| --- | --- | --- | --- | --- | --- | --- | --- |
| Cc1nnc(C(C)C)n1C1CC2CCC(C1)N2CCC(NC(=O)COCCOCCOCCOCCNC(=O)Cc1ccc(-c2nncnn2)cc1)c1ccccc1 (stereo not shown) | C-C chemokine receptor type 5 (CCR5, Homo sapiens, UniProt P51681) | calcium mobilisation, antagonist | HEK-293T expressing CCR5 | top constrained to 1, added: PSC-RANTES | – | bottom of curve | 0.128 fraction of maximum |
| CCCNC(=O)c1ccc2c(c1)CC(=O)N2Cc1cccc(F)c1 | HSP90AA1 N-terminal domain | SPR, two-state model | N-terminal domain | – | – | kon | 1710 ± 1980 M⁻¹ s⁻¹ |
| C[Si](C)(C)C[C@@H](CN)CC(=O)O | 5-hydroxytryptamine receptor 2C (HTR2C, Homo sapiens, UniProt P28335) | ligand displacement, radioligand | – | 75 µM | – | inhibition | -26% |
| Cc1nnc(NC(=O)c2cc([C@@H]3C[C@H]3NC3CCC3)ccc2Br)s1 (relative stereo) | KDM1A | demethylase activity, inhibitor, Amplex Red | – | 6.667 µM, added: H3K4me2 peptide | reference: vehicle | remaining activity | 16% |
| CC(=O)N[C@@H](CC(C)C)C(=O)N[C@@H](CCC(=O)O)C(=O)N[C@H](C(=O)N[C@@H](CC(=O)O)C(=O)COC(=O)c1c(C)cccc1C)C(C)C | CASP1 | enzyme activity, inhibitor | – | – | – | kinact/KI | 36400 M⁻¹ s⁻¹ |
| CC(C)(O)c1ccn2c(-c3ccc(F)c(-c4ccc(F)cc4C#N)c3)cnc2c1F | Gamma-aminobutyric acid receptor subunit alpha-1 (GABRA1, Homo sapiens, UniProt P14867, D219N) | total protein level, Western blot | HEK-293T stably expressing GABAA receptors | 5 µM, single dose, added: hispidulin 10 µM | – | time to first increase | ≤ 6 h |
| CC(C)[C@@H]1NC(=O)[C@H](Cc2ccccc2)NC(=O)CSC[C@@H](C(N)=O)NC(=O)[C@H](CCC(=O)O)NC(=O)[C@H](CO)NC(=O)[C@H](Cc2c[nH]c3cccc(Cl)c23)NC(=O)[C@H](C2CCCCC2)NC(=O)[C@H](C(C)C)NC(=O)[C@H](Cc2ccc(O)cc2)NC(=O)[C@H](CC(=O)O)NC(=O)[C@H](Cc2c[nH]c3ccccc23)NC(=O)[C@H](Cc2ccc(N)nc2)NC(=O)[C@H](Cc2c[nH]c3ccc(Cl)cc23)NC(=O)[C@H](CCC(=O)O)NC1=O | Interleukin-1 receptor-like 2 (IL1RL2, Homo sapiens, UniProt Q9HB29) | reporter gene (SEAP), inhibitor, HEK-Blue IL-36R reporter | HEK-Blue IL-36R cells | 3.7 µM, 6 h, added: IL-36γ 1 ng/mL | – | remaining activity | 22.9% |
| O=c1[nH]c(O)nc2c([C@@H]3N[C@H](COP(=O)(O)O)[C@@H](O)[C@H]3O)c[nH]c12 | Uncharacterized protein (Trypanosoma cruzi, UniProt Q4DRC3) | inhibitor, spectrophotometric IMP formation | – | – | reference: human HGPRT Ki over Uncharacterized protein Ki | selectivity ratio | > 500 |
| COc1ccc(C(=O)c2c(C(=O)NCCCN(C)C)oc3ccc(Cl)cc3c2=O)cc1OC | Growth hormone secretagogue receptor type 1 (GHSR, Homo sapiens, UniProt Q92847) | endosomal trafficking, agonist, bystander BRET 2xFYVE-Venus | – | 30 min, unit not given | reference: baseline | Emax (net BRET) | 0.031 ± 0.006 |
| O=C(Nc1ccccc1)c1cccc([C@@H]2C[C@H]2NC2CCC2)c1 (racemic) | KDM1A | demethylase activity, inhibitor, Amplex Red | – | 0.2222 µM, added: H3K4me2 peptide | reference: vehicle | remaining activity | 57.9% |
| CCN(CC)C(CO)c1cccc2c(C)c(C)oc12 (stereo not shown) | Lysophosphatidic acid receptor 1 (LPAR1, Homo sapiens, UniProt Q92633) | G-protein dissociation, agonist, NanoBiT | HEK-293T | 1 µM, wild-type receptor | reference: baseline luminescence | fold change | 0.764 and 0.785 and 0.536 and 0.703 and 0.651 and 0.687 |
| CC(=O)N[C@@H](Cc1ccc(O)cc1)C(=O)N1CSC[C@H]1C(=O)N[C@@H](C)C(=O)N[C@@H](CC(=O)O)C(=O)COC(=O)c1c(C)cccc1C | CASP1 | enzyme activity, inhibitor | – | – | – | kinact/KI | 88000 M⁻¹ s⁻¹ |
| [N-]=[N+]=N[C@]1(COP(=O)(O)OP(=O)(O)OP(=O)(O)O)O[C@@H](n2ccc(N)nc2=O)[C@@H](F)[C@@H]1O | RNA-directed RNA polymerase L (Human respiratory syncytial virus A, UniProt P28887) | nucleotide incorporation, substrate | – | – | – | Vmax | 0.85 fraction per time |
| O=C1C[C@H](c2nc(-c3ccc(F)c4cn[nH]c34)no2)CCCN1c1ccc(F)cc1 (racemic) | Cannabinoid receptor 2 (CNR2, Homo sapiens, UniProt P34972) | agonist, GloSensor cAMP | CHO expressing CB2 | 1 µM | – | cAMP inhibition | 61.1% and 69.1% and 63.4% |
| CC(C)Oc1cc(Cl)ccc1CNc1cc(-c2ccccc2)nc2ncnn12 | G-protein coupled receptor 3 (GPR3, Homo sapiens, UniProt P46089, V196W) | cAMP level, cAMP GloSensor | – | 10 nM | higher = more cAMP | cAMP luminescence | 33000 a.u. and 46900 a.u. and 32900 a.u. and 53600 a.u. |
| CC(=O)N[C@@H](CCC(C)C)C(=O)N[C@@H](CCC(=O)O)C(=O)N[C@@H](C)C(=O)N[C@@H](CC(=O)O)C(=O)COC(=O)c1c(C)cccc1C | CASP1 | enzyme activity, inhibitor | – | – | – | kinact/KI | 1.14e+06 M⁻¹ s⁻¹ |

| Compound | target | test | test system | setting | how to read | endpoint | result |
| --- | --- | --- | --- | --- | --- | --- | --- |
| CCCCCCOc1ccc(C(=O)OCCN2CC=CCC2)cc1 | Muscarinic acetylcholine receptor M4 (CHRM4, Homo sapiens, UniProt P08173) | – | membranes | 1 µM, 15 h, no carbachol | reference: control | basal binding | 1.28 ± 0.06 fold |
| N#CN1CC[C@H](C(=O)Nc2nc3c(s2)CN(C(=O)Cn2cc(COCCOCCOCCOCCNC(=O)CCCC[C@@H]4SC[C@@H]5NC(=O)N[C@@H]54)nn2)CC3)C1 | E3 ubiquitin-protein ligase TRIM33 (Homo sapiens, UniProt Q9UPN9) | probe binding, affinity probe, neutravidin pull-down LC-MS/MS | HEK293T, cell lysate | 5 µM, 1 h, single replicate, unit not given | higher = more pulled down | iBAQ abundance | 624000 and 486000 and 324000 |
| Cc1ccc(S(=O)(=O)NC(CCO)c2ccccc2)cc1 (stereo not shown) | Rhomboid protease AarA | enzyme activity, inhibitor, fluorogenic peptide substrate | – | – | – | IC50 | inactive |
| CC[C@H](C)[C@H](NC(=O)[C@H](CO)NC(=O)[C@H](CC(N)=O)NC(C)=O)C(=O)N[C@@H](CCCNC(=N)N)C(=O)N[C@@H](CCCCN)C(=O)N[C@@H](Cc1ccccc1)C(=O)N[C@@H](COP(=O)(O)O)C(=O)N[C@H](C(=O)N[C@H](C(=O)N[C@@H](CCC(N)=O)C(=O)N[C@@H](CCCCN)C(=O)N[C@H](C(=O)N1CCC[C@H]1C(=O)NCC(=O)NCC(=O)NCC(=O)NCC(=O)NCC(=O)N[C@@H](CCC(N)=O)C(=O)N[C@@H](C)C(=O)N[C@@H](CCCNC(=N)N)C(=O)N[C@@H](CCCNC(=N)N)C(=O)N[C@@H](CCCNC(=N)N)C(=O)N[C@@H](CCC(N)=O)C(=O)N[C@@H](COP(=O)(O)O)C(=O)N[C@H](C(=O)N[C@@H](CC(C)C)C(=O)N[C@@H](CC(N)=O)C(=O)N[C@@H](CC(C)C)C(=O)N[C@@H](CCSC)C(=O)N[C@H](C(N)=O)[C@@H](C)O)C(C)C)[C@@H](C)O)C(C)C)[C@@H](C)CC | 14-3-3 protein beta/alpha (Homo sapiens, UniProt P31946) | binding, ITC | – | 37 °C, added: CFTR R-domain peptide | – | TΔS | -6.1 kcal/mol |
| CC(C=CC=C(C)C=CC1=C(C)CCCC1(C)C)=CC=O | Rhodopsin (RHO, Homo sapiens, UniProt P08100, E181K) | immunostaining, refers to: opsin | COS-7 transfected | 1.00 µM, unit not given | reference: surface over total stained cells | plasma membrane localization | 0.48 |
| Cc1oc2c(C)c3oc(=O)c(CCC(=O)NCC(O)c4ccccc4)c(C)c3cc2c1C (stereo not shown) | HSP90AA1 N-terminal domain | SPR, two-state model | N-terminal domain | – | – | koff | 0.0191 ± 0.0167 s⁻¹ |
| C/C1=C\CC/C(C)=C/CC(C)(C)/C=C/C1 | Transient receptor potential cation channel subfamily V member 5 (TRPV5, Homo sapiens, UniProt Q9NQA5) | inhibitor, outside-out patch clamp | – | 100 µM, 5 min, holding at -100 mV | – | remaining current | 89 ± 7% |
| CC(=O)N[C@@H](CCC(N)=O)C(=O)N[C@@H](CC(C)C)C(=O)N[C@@H](CCCC(=O)O)C(=O)N1CCC[C@H]1C(=O)N[C@@H](CC(=O)O)C(=O)COC(=O)c1c(C)cccc1C | CASP1 | enzyme activity, inhibitor | – | – | – | kinact/KI | 834000 M⁻¹ s⁻¹ |
| N=C(N)NCCC[C@H](NC(=O)[C@H](Cc1ccc(O)cc1)NC(=O)CNC(=O)[C@H](Cc1c[nH]cn1)NC(=O)[C@H](Cc1c[nH]cn1)NC(=O)[C@H](CCCNC(=N)N)NC(=O)[C@H](CCCCN)NC(=O)[C@H](CCC(=O)O)NC(=O)[C@H](Cc1c[nH]cn1)NC(=O)[C@H](COP(=O)(O)O)NC(=O)[C@@H](N)CC(=O)O)C(=O)N[C@@H](CCCNC(=N)N)C(=O)N[C@@H](CCCCN)C(=O)N[C@@H](Cc1ccccc1)C(=O)N[C@@H](Cc1c[nH]cn1)C(=O)N[C@@H](CCC(=O)O)C(=O)N[C@@H](CCCCN)C(=O)N[C@@H](Cc1c[nH]cn1)C(=O)N[C@@H](Cc1c[nH]cn1)C(=O)O | Sigma intracellular receptor 2 (TMEM97, Homo sapiens, UniProt Q5BJF2) | SPR | – | concentration not given, 25 °C | reference: Rmax | binding response | 12% |
| CCCCCC(O)/C=C/C=O (stereo not shown) | Tubulin beta-3 chain (TUBB3, Homo sapiens, UniProt Q13509) | IA-probe cysteine labelling, covalent modifier, competitive isoTOP-ABPP | proteome, soluble, MDA-MB-231 | 100 µM, in vitro | reference: DMSO over compound, higher = stronger blockade | isoTOP-ABPP ratio | 15 |
| C#CCCCCNC(=O)c1ccc(N(C(=O)C=C)c2ccc(Br)cc2)cc1 | Minor histocompatibility antigen H13 (HM13, Homo sapiens, UniProt Q8TCT9) | mass spectrometry profiling | H460 cell lysate | 100 µM over 10 µM, UniProt Q8TCT9 | reference: high over low concentration | reactivity ratio | 1.77 |
| COc1ccc(Cl)cc1NC(=O)C(C)C | Rhomboid protease AarA | enzyme activity, inhibitor, fluorogenic peptide substrate | – | – | – | IC50 | inactive |
| CC(=O)N[C@@H](CC(C)C)C(=O)N[C@H](C(=O)N[C@@H](Cc1c[nH]cn1)C(=O)N[C@@H](CC(=O)O)C(=O)COC(=O)c1c(C)cccc1C)C(C)(C)C | CASP1 | enzyme activity, inhibitor | – | – | – | kinact/KI | 2.04e+06 M⁻¹ s⁻¹ |
| O=C1Cc2cc(Br)ccc2N1 | Dehaloperoxidase B, ferric (Amphitrite ornata, UniProt Q9NAV7) | product, HPLC | – | added: 5-bromoindole 500 µM, H2O2 100 µM | – | share of total products | 46.2% |
| CCc1cc(O)cc2c(/C=N/NC(=N)NCCc3ccc(Cl)cc3)c[nH]c12 | Relaxin-3 receptor 1 (RXFP3, Homo sapiens, UniProt Q9NSD7, S159A/S163A) | – | HEK-293T | – | reference: wild type | Emax | 67.6 ± 6.36% |
